Measured values pooled from the literature.
Every numbered part comes from another study and shows a few of its results, in no order. “And” joins repeats or separate records; there may be more than shown.
Sequence of UniProt Q15418 (whole entry, looked up): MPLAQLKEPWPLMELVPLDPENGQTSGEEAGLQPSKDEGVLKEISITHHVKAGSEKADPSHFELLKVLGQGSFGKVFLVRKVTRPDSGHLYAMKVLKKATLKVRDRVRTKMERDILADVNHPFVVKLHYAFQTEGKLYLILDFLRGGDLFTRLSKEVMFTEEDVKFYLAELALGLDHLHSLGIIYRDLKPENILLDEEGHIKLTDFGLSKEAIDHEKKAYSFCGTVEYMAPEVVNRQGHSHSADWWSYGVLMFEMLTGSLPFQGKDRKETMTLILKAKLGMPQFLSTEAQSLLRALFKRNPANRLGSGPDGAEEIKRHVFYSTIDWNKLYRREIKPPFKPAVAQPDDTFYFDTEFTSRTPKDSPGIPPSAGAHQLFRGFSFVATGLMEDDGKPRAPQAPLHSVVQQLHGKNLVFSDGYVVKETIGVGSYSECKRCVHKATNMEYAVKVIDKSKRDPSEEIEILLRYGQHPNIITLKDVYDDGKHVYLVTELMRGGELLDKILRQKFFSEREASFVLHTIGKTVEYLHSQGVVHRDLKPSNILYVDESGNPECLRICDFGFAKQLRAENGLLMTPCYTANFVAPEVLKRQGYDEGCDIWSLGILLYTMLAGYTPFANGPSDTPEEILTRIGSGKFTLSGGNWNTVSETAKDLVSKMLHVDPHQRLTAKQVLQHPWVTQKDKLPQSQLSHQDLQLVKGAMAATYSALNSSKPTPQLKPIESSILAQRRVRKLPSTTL
Sequence of UniProt O43283 (whole entry, looked up): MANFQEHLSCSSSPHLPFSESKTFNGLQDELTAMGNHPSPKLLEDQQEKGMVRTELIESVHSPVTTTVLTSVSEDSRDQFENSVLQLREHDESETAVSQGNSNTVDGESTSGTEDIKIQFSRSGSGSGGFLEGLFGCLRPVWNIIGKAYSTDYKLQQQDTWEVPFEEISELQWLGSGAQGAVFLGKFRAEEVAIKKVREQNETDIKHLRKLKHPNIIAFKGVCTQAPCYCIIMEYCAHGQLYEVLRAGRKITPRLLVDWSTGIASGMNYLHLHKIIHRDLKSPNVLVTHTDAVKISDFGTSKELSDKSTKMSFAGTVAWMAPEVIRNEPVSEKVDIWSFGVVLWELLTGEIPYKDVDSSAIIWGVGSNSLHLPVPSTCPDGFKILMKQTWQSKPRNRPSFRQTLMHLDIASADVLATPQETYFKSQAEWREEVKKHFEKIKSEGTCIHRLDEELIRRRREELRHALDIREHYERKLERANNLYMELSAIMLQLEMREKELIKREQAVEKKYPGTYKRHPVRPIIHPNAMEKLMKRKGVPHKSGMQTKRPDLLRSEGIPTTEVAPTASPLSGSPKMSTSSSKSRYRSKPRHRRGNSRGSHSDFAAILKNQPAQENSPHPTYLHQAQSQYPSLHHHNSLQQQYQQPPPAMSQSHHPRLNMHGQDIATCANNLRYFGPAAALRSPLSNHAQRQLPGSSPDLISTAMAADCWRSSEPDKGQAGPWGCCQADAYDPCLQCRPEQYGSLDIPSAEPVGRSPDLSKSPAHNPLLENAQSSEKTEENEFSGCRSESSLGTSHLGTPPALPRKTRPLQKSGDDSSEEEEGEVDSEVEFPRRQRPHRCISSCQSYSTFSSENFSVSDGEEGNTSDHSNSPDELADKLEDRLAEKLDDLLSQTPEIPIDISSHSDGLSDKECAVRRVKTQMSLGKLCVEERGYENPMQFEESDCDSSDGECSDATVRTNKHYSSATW
Sequence of UniProt Q9Y243 (whole entry, looked up): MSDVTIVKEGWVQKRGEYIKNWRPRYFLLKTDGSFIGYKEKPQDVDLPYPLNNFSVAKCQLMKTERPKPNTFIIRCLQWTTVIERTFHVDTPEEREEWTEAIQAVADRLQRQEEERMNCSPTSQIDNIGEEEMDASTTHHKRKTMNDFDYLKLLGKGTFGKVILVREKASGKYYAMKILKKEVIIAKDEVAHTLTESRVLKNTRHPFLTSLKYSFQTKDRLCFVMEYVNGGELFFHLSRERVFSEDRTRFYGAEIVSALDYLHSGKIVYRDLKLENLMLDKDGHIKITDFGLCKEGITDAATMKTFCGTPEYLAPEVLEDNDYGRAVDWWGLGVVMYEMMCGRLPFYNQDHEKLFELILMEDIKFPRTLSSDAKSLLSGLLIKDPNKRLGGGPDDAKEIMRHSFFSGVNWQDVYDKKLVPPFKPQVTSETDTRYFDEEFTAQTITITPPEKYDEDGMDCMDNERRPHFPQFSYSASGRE

Block 1
Compound: Nc1cnc(N2CCc3cc(S(=O)(=O)Nc4c(F)cc(Cl)cc4F)cc(N4CCCC4=O)c32)nc1
Observed: cell-free assay
Technique: competition with immobilised ligand
Concentration: 1 µM
target | remaining binding [%]
MINK1 (Homo sapiens, UniProt Q8N4C8) | 100
CAMKK1 (Homo sapiens, UniProt Q8N5S9) | 100
MAPK10 (Homo sapiens, UniProt P53779) | 94
NUAK2 (Homo sapiens, UniProt Q9H093) | 100
MAPK15 (Homo sapiens, UniProt Q8TD08) | 84
TAOK2 (Homo sapiens, UniProt Q9UL54) | 78
TSSK1B (Homo sapiens, UniProt Q9BXA7) | 100
LCK (Homo sapiens, UniProt P06239) | 100
OXSR1 (Homo sapiens, UniProt O95747) | 75
MAP3K13 (Homo sapiens, UniProt O43283) | 100
Ribosomal protein S6 kinase alpha-1, C-terminal kinase domain (RPS6KA1, Homo sapiens, UniProt Q15418) | 100
PHKG1 (Homo sapiens, UniProt Q16816) | 71
MARK3 (Homo sapiens, UniProt P27448) | 100
STK33 (Homo sapiens, UniProt Q9BYT3) | 80
Myosin-IIIa (MYO3A, Homo sapiens, UniProt Q8NEV4) | 77
COQ8B (Homo sapiens, UniProt Q96D53) | 100
STK26 (Homo sapiens, UniProt Q9P289) | 83
AKT3 (Homo sapiens, UniProt Q9Y243) | 94
RPS6KB1 (Homo sapiens, UniProt P23443) | 83
TIE1 (Homo sapiens, UniProt P35590) | 100
PIM3 (Homo sapiens, UniProt Q86V86) | 98
MTOR (Homo sapiens, UniProt P42345) | 100
SIK3 (Homo sapiens, UniProt Q9Y2K2) | 83
PAK6 (Homo sapiens, UniProt Q9NQU5) | 100
MAPK7 (Homo sapiens, UniProt Q13164) | 100

Block 2
Target: Serine/threonine-protein kinase TAO1 (TAOK1, Homo sapiens, UniProt Q7L7X3)
Observed: enzyme activity
Action: inhibitor
Concentration: 0.5 µM
Reference: control
Residues (Q7L7X3 1-1001): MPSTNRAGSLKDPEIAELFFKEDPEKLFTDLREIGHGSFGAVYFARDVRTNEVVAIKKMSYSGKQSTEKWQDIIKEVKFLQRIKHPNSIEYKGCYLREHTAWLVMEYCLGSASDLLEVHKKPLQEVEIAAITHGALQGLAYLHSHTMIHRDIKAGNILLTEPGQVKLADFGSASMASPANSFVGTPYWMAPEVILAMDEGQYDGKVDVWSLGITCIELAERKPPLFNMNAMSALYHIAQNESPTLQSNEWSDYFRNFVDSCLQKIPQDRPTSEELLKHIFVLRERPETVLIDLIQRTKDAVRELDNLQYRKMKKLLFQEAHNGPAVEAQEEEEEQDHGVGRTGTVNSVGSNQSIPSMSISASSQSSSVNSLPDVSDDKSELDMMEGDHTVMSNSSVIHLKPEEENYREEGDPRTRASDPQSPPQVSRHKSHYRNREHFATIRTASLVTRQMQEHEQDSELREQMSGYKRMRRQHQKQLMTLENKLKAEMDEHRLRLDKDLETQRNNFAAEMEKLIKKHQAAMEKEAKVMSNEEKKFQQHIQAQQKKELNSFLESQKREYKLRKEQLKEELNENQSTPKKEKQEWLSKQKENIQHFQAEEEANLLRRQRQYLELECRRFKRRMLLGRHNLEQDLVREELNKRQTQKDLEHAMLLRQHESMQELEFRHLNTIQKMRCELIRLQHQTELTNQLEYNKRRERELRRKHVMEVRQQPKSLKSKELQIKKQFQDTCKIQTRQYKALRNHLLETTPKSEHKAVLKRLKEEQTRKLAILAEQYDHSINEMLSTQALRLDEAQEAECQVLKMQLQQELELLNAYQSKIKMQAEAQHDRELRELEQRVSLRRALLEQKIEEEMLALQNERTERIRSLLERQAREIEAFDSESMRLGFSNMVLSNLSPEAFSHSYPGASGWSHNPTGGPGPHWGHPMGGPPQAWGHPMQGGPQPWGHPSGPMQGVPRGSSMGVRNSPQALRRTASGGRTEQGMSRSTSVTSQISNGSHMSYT
Structure (SMILES) | remaining activity [%]
Fc1ccc(-c2nc3n(c2-c2ccncc2)CCS3)cc1 | 97.7
Nc1nc(Nc2ccc(S(N)(=O)=O)cc2)nn1C(=O)c1c(F)cccc1F | 18.8
CC(C)(C)n1nc(Cc2cccc3ccccc23)c2c(N)ncnc21 | 86.4
Nc1nccc(-c2c(-c3ccc(F)cc3)ncn2C2CCNCC2)n1 | 92.7
CC#CC(=O)Nc1cc2c(Nc3ccc(F)c(Cl)c3)ncnc2cn1 | 104
CC[n+]1c(/C=C/N(C)c2ccccc2)n(-c2ccccc2)c2ccc(-c3nc4ccccc4s3)cc21 | 99.4
COc1cc(Nc2c(C#N)cnc3cc(OCCCN4CCN(C)CC4)c(OC)cc23)c(Cl)cc1Cl | 52.8
Oc1ccc(Nc2nc(-c3ccc(Cl)cc3)cs2)cc1 | 97.1
Cc1cc(Nc2nc(-c3ccccc3)nc3ccccc23)n[nH]1 | 115
CSc1nc(-c2ccnc(N[C@@H](C)c3ccccc3)c2)c(-c2ccc(F)cc2)[nH]1 (racemic) | 79.9
Cc1ccc(NC2=CC(=O)c3sc(C)nc3C2=O)cc1 | 99.8
O=C1Cc2c([nH]c3ccc([N+](=O)[O-])cc23)-c2ccccc2N1 | 66.9
COc1ccc(S(=O)(=O)N(CCO)c2ccccc2CN(C)CC=Cc2ccc(Cl)cc2)cc1 | 103
Cc1cncc2cccc(S(=O)(=O)N3CCCN(C(=O)CN)C[C@@H]3C)c12 | 84.2
CCCC(=O)Oc1ccc2[nH]c(C(=O)c3cc4ccccc4[nH]3)cc2c1 | 82.8
CC(=O)c1ccc(N2CCOCC2)cc1O | 99.4
O=S(=O)(NCCNC/C=C/c1ccc(Br)cc1)c1cccc2cnccc12 | 101
Nc1ncnc2c1cnn2-c1ccccc1 | 89.5
O=C1NC(=O)C(c2c[nH]c3ccccc23)=C1c1c[nH]c2ccccc12 | 93.7
N#CC(=C(N)Sc1ccc(N)cc1)c1ccccc1C(F)(F)F | 98.3
CCc1[nH]c(-c2ccc(OC)cc2)nc1-c1ccncc1 | 104
NC(=O)c1ccc(N(C(N)=O)c2c(F)cccc2F)nc1-c1ccc(F)cc1F | 96.2

Block 3
Target: DNA polymerase theta, helicase domain (POLQ, Homo sapiens, UniProt O75417)
Sequence of UniProt O75417 (whole entry, looked up): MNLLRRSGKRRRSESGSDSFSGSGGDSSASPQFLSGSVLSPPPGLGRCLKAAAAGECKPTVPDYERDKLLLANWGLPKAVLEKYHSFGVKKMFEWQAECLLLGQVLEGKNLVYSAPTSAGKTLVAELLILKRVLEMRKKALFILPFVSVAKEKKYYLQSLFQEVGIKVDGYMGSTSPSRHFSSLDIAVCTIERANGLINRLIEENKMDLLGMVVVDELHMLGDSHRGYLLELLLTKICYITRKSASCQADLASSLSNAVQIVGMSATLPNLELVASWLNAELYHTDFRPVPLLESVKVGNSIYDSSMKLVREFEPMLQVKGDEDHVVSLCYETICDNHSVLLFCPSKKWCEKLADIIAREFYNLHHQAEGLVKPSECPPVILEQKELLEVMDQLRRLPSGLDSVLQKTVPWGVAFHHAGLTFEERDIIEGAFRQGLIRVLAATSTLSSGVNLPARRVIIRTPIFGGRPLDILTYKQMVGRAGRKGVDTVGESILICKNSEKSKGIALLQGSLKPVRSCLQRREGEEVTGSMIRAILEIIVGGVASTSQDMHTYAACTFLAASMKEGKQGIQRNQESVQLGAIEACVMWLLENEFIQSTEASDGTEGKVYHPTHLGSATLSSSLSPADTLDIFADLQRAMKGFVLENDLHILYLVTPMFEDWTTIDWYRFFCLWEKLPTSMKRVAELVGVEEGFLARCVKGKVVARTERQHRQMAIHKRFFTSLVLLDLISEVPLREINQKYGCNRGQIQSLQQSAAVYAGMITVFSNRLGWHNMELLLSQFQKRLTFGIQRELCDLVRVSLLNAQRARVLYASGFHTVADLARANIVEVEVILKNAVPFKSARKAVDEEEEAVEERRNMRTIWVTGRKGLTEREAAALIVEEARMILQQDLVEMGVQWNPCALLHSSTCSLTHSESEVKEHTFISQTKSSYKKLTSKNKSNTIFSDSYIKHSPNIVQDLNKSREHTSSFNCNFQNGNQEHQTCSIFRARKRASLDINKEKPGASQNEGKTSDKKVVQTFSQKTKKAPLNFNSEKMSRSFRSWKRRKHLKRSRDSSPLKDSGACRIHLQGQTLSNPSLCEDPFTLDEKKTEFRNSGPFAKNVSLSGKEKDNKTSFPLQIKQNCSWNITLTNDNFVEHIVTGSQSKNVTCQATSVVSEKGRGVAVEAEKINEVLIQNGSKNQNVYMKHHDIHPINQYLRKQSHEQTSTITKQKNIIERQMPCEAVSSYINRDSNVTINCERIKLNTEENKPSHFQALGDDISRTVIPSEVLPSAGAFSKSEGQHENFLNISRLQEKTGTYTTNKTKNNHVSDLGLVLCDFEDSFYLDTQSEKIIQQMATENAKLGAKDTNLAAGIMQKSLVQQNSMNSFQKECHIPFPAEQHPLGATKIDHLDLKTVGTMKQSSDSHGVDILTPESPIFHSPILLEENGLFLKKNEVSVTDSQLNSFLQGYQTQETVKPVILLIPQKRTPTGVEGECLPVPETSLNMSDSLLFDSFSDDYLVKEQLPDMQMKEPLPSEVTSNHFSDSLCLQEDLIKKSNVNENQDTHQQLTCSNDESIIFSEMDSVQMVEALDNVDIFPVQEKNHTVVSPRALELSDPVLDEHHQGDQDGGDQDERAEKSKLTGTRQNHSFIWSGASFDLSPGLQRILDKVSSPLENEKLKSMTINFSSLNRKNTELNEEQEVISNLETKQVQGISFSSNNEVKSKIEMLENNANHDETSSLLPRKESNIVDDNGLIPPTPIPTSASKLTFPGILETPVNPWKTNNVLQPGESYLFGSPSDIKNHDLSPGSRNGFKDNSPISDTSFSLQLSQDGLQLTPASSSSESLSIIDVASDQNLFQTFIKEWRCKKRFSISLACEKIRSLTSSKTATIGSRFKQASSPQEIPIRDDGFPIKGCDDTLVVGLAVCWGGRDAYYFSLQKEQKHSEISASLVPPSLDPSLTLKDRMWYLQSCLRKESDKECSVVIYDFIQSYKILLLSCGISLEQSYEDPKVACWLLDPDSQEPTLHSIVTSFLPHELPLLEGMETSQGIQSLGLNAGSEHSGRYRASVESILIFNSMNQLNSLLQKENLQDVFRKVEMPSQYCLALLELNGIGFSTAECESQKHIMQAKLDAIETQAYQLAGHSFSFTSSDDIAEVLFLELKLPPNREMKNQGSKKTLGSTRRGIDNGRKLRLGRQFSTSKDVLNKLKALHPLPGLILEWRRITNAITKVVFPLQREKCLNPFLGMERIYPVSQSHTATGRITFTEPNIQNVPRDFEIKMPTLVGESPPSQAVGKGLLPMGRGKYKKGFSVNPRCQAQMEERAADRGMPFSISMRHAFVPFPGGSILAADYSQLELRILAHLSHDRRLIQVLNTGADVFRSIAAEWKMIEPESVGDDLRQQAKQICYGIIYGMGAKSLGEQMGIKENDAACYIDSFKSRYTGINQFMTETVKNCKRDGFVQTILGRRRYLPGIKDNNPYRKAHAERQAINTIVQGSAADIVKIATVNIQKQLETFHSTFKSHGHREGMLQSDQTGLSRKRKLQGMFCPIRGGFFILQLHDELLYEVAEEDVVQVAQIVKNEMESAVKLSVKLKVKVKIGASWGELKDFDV
Action: inhibitor
Concentration: concentration not given
Together with: with ssDNA
SMILES | remaining activity
CCOc1ccc2nc3cc(N)ccc3c(N)c2c1 | 33.7% and 32.7%
COc1cc(NC(=O)CSc2ncc(S(=O)(=O)c3ccc(Br)cc3)c(=O)[nH]2)cc(OC)c1 | 75.7% and 83.4%
Cc1ccccc1C(=O)Nc1sc2c(c1C(=O)O)CCC(C(C)(C)C)C2 (stereo not drawn) | 65.8% and 65.7%
COc1cc2c(cc1Cc1cccc(Cl)c1F)c(=O)c(C(=O)O)cn2[C@H](CO)C(C)C | 81.2% and 81.7%
O=C(O)C1=CC(=C(c2ccc(O)c(C(=O)O)c2)c2ccc(O)c(C(=O)O)c2)C=CC1=O | 4.82% and 2.62%
COc1ccc(C(=O)Nc2noc3ccccc23)cc1 | 64% and 62.2%
CCCCCCCCCCCCc1ccc(S(=O)(=O)Nc2nncs2)cc1 | 99.9% and 105%
CC1=Nc2cc(C(=O)NCCc3ccc(Cl)cc3)ccc2Sc2ccc(C)cc21 | 65% and 64.7%
COC(=O)c1cc(Cl)ccc1NC(=O)CSc1ncc(S(=O)(=O)c2ccc(Br)cc2)c(=O)[nH]1 | 38.6% and 34.7%
COc1ccc2c(c1)c(CC(=O)O)c(C)n2Cc1ccc(Cl)cc1 | 69.1% and 69.3%
C[C@H]1[C@H](C)CC[C@]2(C(=O)O)CC[C@]3(C)C(=CC[C@@H]4[C@@]5(C)C[C@@H](O)[C@H](O)[C@@](C)(CO)[C@@H]5CC[C@]43C)[C@H]12 | 55.6% and 56.9%
O=C(Nc1ccccc1F)c1ccc2c(Cl)c3c(nc2c1)CCC3 | 82.3% and 77.7%

Block 4
Organism: Plasmodium berghei
Action: inhibitor
Cell line: Huh-7
Strain: GFP-expressing sporozoites, liver stage
Concentration: 10 µM
Time: 24 h
Reference: untreated control
SMILES | infection rate [%]
CCCCOc1ccc(C(=O)CCN2CCCCC2)cc1 | 83.3
Cc1cc(C2CCCCC2)n(O)c(=O)c1 | 18.6
CCCCCCCCCCCCCCCC(=O)OC[C@@H](NC(=O)C(Cl)Cl)[C@H](O)c1ccc([N+](=O)[O-])cc1 | 46.5
CC(C)(C)c1ccc(C(O)CCCN2CCC(C(O)(c3ccccc3)c3ccccc3)CC2)cc1 (stereo not drawn) | 4.89
CO/N=C(\C(=O)N[C@@H]1C(=O)N2C(C(=O)O)=C(CSc3nc(=O)c(O)nn3C)CS[C@H]12)c1csc(N)n1 | 77.6
CCN(CC)CCOCCOC(=O)C1(c2ccccc2)CCCC1 | 70
C=C(CC)C(=O)c1ccc(OCC(=O)O)c(Cl)c1Cl | 88.5
CC(C)CCC[C@@H](C)[C@H]1CC[C@H]2[C@@H]3CC=C4C[C@@H](O)CC[C@]4(C)[C@H]3CC[C@]12C | 93.8
CC(=O)N[C@@H](CS)C(=O)O | 108
OC(CCN1CCCCC1)(c1ccccc1)C1C[C@@H]2C=C[C@H]1C2 (stereo partly drawn) | 103
O=C(O)CCCC[C@@H]1SC[C@@H]2NC(=O)N[C@@H]21 | 95.1
O=C(O)CN1C(=O)c2cccc3cccc(c23)C1=O | 111
CCCCCCCCCCOc1cc2c(O)c(C(=O)OCC)cnc2cc1OCC | 11.8

Repeated from above (block 1):
target | remaining binding [%]
TIE1 (Homo sapiens, UniProt P35590) | 100
MAPK15 (Homo sapiens, UniProt Q8TD08) | 84
PAK6 (Homo sapiens, UniProt Q9NQU5) | 100
TSSK1B (Homo sapiens, UniProt Q9BXA7) | 100
MARK3 (Homo sapiens, UniProt P27448) | 100
SIK3 (Homo sapiens, UniProt Q9Y2K2) | 83
Myosin-IIIa (MYO3A, Homo sapiens, UniProt Q8NEV4) | 77
NUAK2 (Homo sapiens, UniProt Q9H093) | 100
MAP3K13 (Homo sapiens, UniProt O43283) | 100
PIM3 (Homo sapiens, UniProt Q86V86) | 98
MAPK7 (Homo sapiens, UniProt Q13164) | 100
OXSR1 (Homo sapiens, UniProt O95747) | 75
